Measured values collected from several papers.
Lines come from different studies, so protocols differ. Numbers after ± are the reported error.
Target: Kappa-type opioid receptor (OPRK1, Homo sapiens, UniProt P41145)
Chain of UniProt P41145 (whole entry, looked up): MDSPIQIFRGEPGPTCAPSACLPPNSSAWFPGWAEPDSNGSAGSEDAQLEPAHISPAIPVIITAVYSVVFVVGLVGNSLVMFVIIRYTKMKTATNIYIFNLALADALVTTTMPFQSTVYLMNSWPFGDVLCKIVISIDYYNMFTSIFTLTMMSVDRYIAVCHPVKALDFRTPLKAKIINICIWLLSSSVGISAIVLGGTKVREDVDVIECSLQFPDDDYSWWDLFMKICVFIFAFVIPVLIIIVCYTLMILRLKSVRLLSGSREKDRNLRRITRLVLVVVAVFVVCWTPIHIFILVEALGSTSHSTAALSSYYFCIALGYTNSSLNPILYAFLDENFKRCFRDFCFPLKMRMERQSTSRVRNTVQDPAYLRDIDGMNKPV

For `Oc1cccc(CCN(CCc2ccccc2)CC2CC2)c1`, the EC50 was 40 nM (beta-arrestin 2 recruitment, partial agonist, PathHunter luminescence; U2OS; 90 min, 37 °C).
With `C=CC[N+]12CC[C@]34C(=C(C(=O)OC)[C@@H](C[C@@H]31)/C(=C\C)C2)Nc1ccccc14` (some centres unmarked) the EC50 was over 10000 nM (cAMP inhibition, agonist, HitHunter; CHO-K1; together with: forskolin).
`C[C@H]1N=C(c2ccccc2F)c2cc(Br)ccc2-n2cnc(C(=O)O)c21` has an IC50 of over 10000 nM (binding).
`COc1cc(Nc2ncc(F)c(Nc3ccc4c(n3)NC(=O)C(C)(C)O4)n2)cc(OC)c1OC` has an IC50 of over 10000 nM.
`CC[C@@H]1CN2CC[C@]34c5ccccc5N[C@@H]3[C@H](C(=O)OC)[C@H]1C[C@H]24` has an EC50 of over 10000 nM (cAMP inhibition, agonist, HitHunter; CHO-K1; together with: forskolin).
The EC50 of `Oc1cccc(N2C3CCC2CN(CCc2ccccc2)C3)c1` is reported as over 10000 nM.
The Kd of `COC(=O)/C=C/C(=O)N[C@@H]1CC[C@@]2(O)[C@H]3Cc4ccc(O)c5c4[C@@]2(CCN3CC2CC2)[C@H]1O5` is reported as 5.95 ± 0.94 nM (reversible binding, radioligand saturation binding; N2a membranes; together with: [3H]compound).
With `NC(N)=Nc1ccc2[nH]c3c(c2c1)C[C@@]1(O)[C@H]2Cc4ccc(O)c5c4[C@@]1(CCN2CC1CC1)[C@H]3O5` the Ki was 0.11 nM.
`Cc1cc(O)cc(C)c1C[C@H](N)C(=O)N[C@H](C)C(=O)NCC(=O)N[C@@H](Cc1ccc(Cl)cc1)C(=O)N(C)CCC[C@@]1(c2ccc(F)cc2)OCc2cc(C#N)ccc21` gave an IC50 of 155 nM.
`COc1cc(C(=O)N2CC[C@@H](O)[C@@H](N)C2)cc2nc(-c3cc4ccccc4n3CC3CC3)n(C)c12` has an IC50 of 79400 nM (antagonist, GTPγS binding).
`C[C@@H](NC(=O)[C@@H](N)Cc1ccc(O)cc1)C(=O)NCC(=O)N[C@@H](Cc1ccccc1)C(=O)N(C)CCC[C@@]1(c2ccc(F)cc2)OCc2cc(C#N)ccc21` gave an IC50 of 302 nM.
`C/C=C1/C[N+]2(C)CC[C@]34C(=C(C(=O)OC)[C@H]1C[C@@H]32)Nc1ccccc14` (some centres unmarked) has an EC50 of over 10000 nM (cAMP inhibition, agonist, HitHunter; CHO-K1; together with: forskolin).
`Cc1cccc(C)c1N1C(=O)CNC2(CCN(C)CC2)C1=O` gave a Ki of over 10000 nM (binding).
`CCCC[C@@H](NC(=O)[C@@H](N)Cc1ccc(O)cc1)C(=O)NCC(=O)N[C@@H](Cc1ccc(F)cc1)C(=O)N(C)CCC[C@@]1(c2ccc(F)cc2)OCc2cc(C#N)ccc21` gave an IC50 of 245 nM.

Some of these lines once more:
The Kd of `COC(=O)/C=C/C(=O)N[C@@H]1CC[C@@]2(O)[C@H]3Cc4ccc(O)c5c4[C@@]2(CCN3CC2CC2)[C@H]1O5` is reported as 5.95 ± 0.94 nM (reversible binding, radioligand saturation binding; N2a membranes; together with: [3H]compound).
